Measurements of several laboratories.
Every numbered part comes from another study and shows a few of its results, in no order.

Series 1
Structure (SMILES): CC(C)n1cnc(-c2ccc(F)cc2)c1-c1ncc(C(=O)Nc2ccc(N3CCN(C)CC3)cc2)[nH]1
Technique: phase 2a clinical trial
Refers to: injury and poisoning (SOC)
Species: idiopathic pulmonary fibrosis patients
dose	setting	patients with TEAEs [%]
dose not given	grade 2, all drug arms	0
60 mg once daily	grade 2 maximum intensity	0
60 mg once daily	grade 5 maximum intensity	0
30 mg once daily	grade 4 maximum intensity	0

Series 2
Target: Probable WRKY transcription factor 11, DNA-binding domain (WRKY11, Arabidopsis thaliana, UniProt Q9SV15, residues 228-325)
Technique: DNA-protein interaction ELISA
Form: double-stranded DNA, one strand shown
Matrix: in vitro, bacterial lysate
Tested at: not given
Setting: whole dsDNA probe, crude lysate protein
Reference: highest signal in screen
Direction: higher = stronger binding
Target sequence (chain): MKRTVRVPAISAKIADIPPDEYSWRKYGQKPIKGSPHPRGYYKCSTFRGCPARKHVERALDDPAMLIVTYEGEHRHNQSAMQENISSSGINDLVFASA
Oligonucleotide	relative absorbance
AAAAAATGCTATCCGTGTCTATGCCAAAAA	14.1 % of maximum
AAAAAAATCCGATCGATGCATATATAAAA	18.7 % of maximum
AAAAAACACTCACACCTATACGGCTCAAAA	14.4 % of maximum

Series 3
Target: Replicase polyprotein 1ab, nsp13 helicase (rep, Severe acute respiratory syndrome coronavirus 2, UniProt P0DTD1)
Effect on: helicase activity
Action: inhibitor
Tested at: 20 µM
SMILES	inhibition [%]
CC(=O)[C@@]1(O)CC[C@H]2[C@@H]3C[C@H](C)C4=CC(=O)C=C[C@]4(C)[C@@]3(F)[C@@H](O)C[C@@]21C	-1.3
C[C@@H]1C[C@H]2[C@@H]3CCC4=CC(=O)C=C[C@]4(C)[C@@]3(F)[C@@H](O)C[C@]2(C)[C@@]1(O)C(=O)CO	3.49
CCN(CCO)CCCC(C)Nc1ccnc2cc(Cl)ccc12 (stereo not shown)	8.87
Cc1cn([C@H]2C[C@H](N=[N+]=[N-])[C@@H](CO)O2)c(=O)[nH]c1=O	1.15
O=C(NN1C(=O)[C@@H]2[C@@H]3C=C[C@@H]([C@H]4C[C@@H]34)[C@@H]2C1=O)c1ccc(C(F)(F)F)cc1	1.45
CC(C)[C@]12O[C@H]1[C@@H]1O[C@]13[C@]1(O[C@H]1C[C@H]1C4=C(CC[C@@]13C)C(=O)OC4)[C@@H]2O	2.13
CCN(CC)C(C)C(=O)c1ccccc1 (stereo not shown)	0.92
Nc1ncnc2c1ncn2[C@@H]1O[C@H](COP(=O)(O)OP(=O)(O)OP(=O)(O)O)[C@@H](O)[C@H]1O	9.31
CC(C)(C)NC(=O)N[C@H](C(=O)N1C[C@H]2[C@@H]([C@H]1C(=O)NC(CC1CCC1)C(=O)C(N)=O)C2(C)C)C(C)(C)C (stereo partly shown)	-5.73
CCCC[C@@H](C=O)NC(=O)[C@H](CC(C)C)NC(=O)OCc1ccccc1	3.97

Series 4
Target: Replicase polyprotein 1ab, main protease (rep, Severe acute respiratory syndrome coronavirus 2, UniProt P0DTD1)
Effect on: enzyme activity
Action: inhibitor
Tested at: 20 µM
Setting: primary screen
Structure (SMILES)	inhibition [%]
C=C1C(=O)O[C@H]2[C@H]1CC/C(C)=C\CC[C@@]1(C)O[C@@H]21	39.1
CC1=C(/C=C/C(=C/C=C/C(C)=C/C(=O)O)c2ccc(C)cc2)C(C)(C)CCC1	38
O=c1cccc2cc(O)c(O)c(O)c2c1O	101

Further values, each from its own experiment
Molecule	cell line	test	test system	setting	how to read	quantity	result
CC(C)/N=c1\cc2n(-c3ccc(Cl)cc3)c3ccccc3nc-2cc1Nc1ccc(Cl)cc1	HEK-293T	pseudovirus infection, FDA-approved drug library screen	VSV pseudotyped with SARS-CoV-2 spike	10 µM, 16 h	reference: vehicle-treated	GFP-positive cells	80%
Aprotinin	HEK-293T/ACE2	–	–	concentration not given	reference: vehicle	nuclei number	93%

For quick reference, copied from above (series 3):
SMILES	inhibition [%]
CCN(CCO)CCCC(C)Nc1ccnc2cc(Cl)ccc12 (stereo not shown)	8.87
Cc1cn([C@H]2C[C@H](N=[N+]=[N-])[C@@H](CO)O2)c(=O)[nH]c1=O	1.15
O=C(NN1C(=O)[C@@H]2[C@@H]3C=C[C@@H]([C@H]4C[C@@H]34)[C@@H]2C1=O)c1ccc(C(F)(F)F)cc1	1.45
